Measured values gathered from unrelated publications.
Compare with care: the assays were run in different laboratories. Values joined by “and” are separate records of one study, mostly repeats; a detail may differ. Numbers after ± are the reported error.

| SMILES | cell line | test | system | conditions | how to read | measurement | result |
| --- | --- | --- | --- | --- | --- | --- | --- |
| Cc1cc(=O)[nH]n1-c1nc(-c2ccc(Cl)cc2)c2c(NC(=O)c3ccccc3)nnc-2[nH]1 | KM12 | SRB |  | 10 µM, NCI60 single-dose screen, colon cancer | baseline: untreated | cell growth | 100% |
| COc1cc(-c2ccccc2)ncc1C(=O)Nc1ccc2c(=O)[nH]c(-c3ccc(C(C)(C)O)cc3)nc2c1 | Apc Q1405X mutant organoids | organoid viability, AlamarBlue | mouse small intestinal organoids | 6 days, Tnks genotype Tnks+/+ |  | Hill slope | -0.517 |
| Nc1cccc2c1C(=O)N(C1CCC(=O)NC1=O)C2=O (centres unmarked) | bone marrow CD138+ myeloma cells | XTT |  | 1 µM, phenol red-free RPMI |  | viability | 80% |
| O=C(/C=C/C=C/C=C/C1CCCCC1)NC1=C[C@@](O)(/C=C/C=C/C=C/C(=O)NC2=C(O)CCC2=O)[C@@H]2O[C@@H]2C1=O | NCI-H1703 | cell growth, CellTiter-Glo |  | 78 h |  | GI50 | 16.9 µM |
| Cn1c(Nc2nc3ccc(C(F)(F)F)cc3s2)nc2cc(C(=O)NCCOCCO)ccc21 | SH-SY5Y | RNA-seq, refers to: IL4R mRNA |  | 5 µM, 5 h | baseline: untreated cells | fold change | 2.09 |
| CCCCCCNC(=O)n1cc(F)c(=O)[nH]c1=O | SW-403 | LC-MS, refers to: Cer(d18:1/14:0) |  | 10 µM |  | ceramide level | 16.9 ± 0.37 pmol/mg protein |
| CC#CC(=O)N1CCC[C@H]1c1nc(-c2ccc(C(=O)Nc3ccccn3)cc2)c2c(N)nccn12 | Ramos | calcium flux, FLIPR |  | 4 h preincubation |  | maximum inhibition | 81.1% |
| O=C(O)c1ccc(-c2c[nH]c3ncc(-c4ccccc4)cc23)cc1C1CCCC1 | SK-OV-3 | ATP |  | 0.01 µM, 4 days, 3D U-bottom low-attachment | baseline: untreated | relative cell number | 113% |
| C=CC(=O)N1CCC[C@@H](c2ccc(C(N)=O)c3[nH]ccc23)C1 | Ramos | calcium flux, FLIPR |  | 1 h preincubation |  | maximum inhibition | 51.4% |
| C#C[C@@]1(O)[C@@H](CO)O[C@@H](n2cc(F)c3c(N)ncnc32)[C@@H]1O | NCI/ADR-RES | cell growth, SRB |  |  |  | TGI | 11.3 µM |
| CC(C)NCC(O)c1ccc(O)c(O)c1 (centres unmarked) | mouse ventricular cardiomyocytes |  |  | dose not given, 0.207 s |  | sarcomere length | 1.75 µm |
| CCCCN1CCN(c2ccc3[nH]c(-c4ccc5[nH]c(-c6ccc(OCC)cc6)nc5c4)nc3c2)CC1 | NCI/ADR-RES | cell growth, NCI-60 SRB |  | 10 µM, 48 h |  | growth percent | 87.8% |
| Cn1cc(-c2ccc(-c3cncc(Cl)c3N3CCC4(CCNC4=O)CC3)cc2)cn1 | COLO 205 | gene expression, microarray, refers to: FCGRT mRNA |  | concentration not given, 6 h | baseline: untreated cells | log2 fold change | 2.53 |
| COC(=O)c1cc(C(C)=NNc2nc(-c3ccc4c(c3)OCCCO4)cs2)ccc1O | T47D | flow cytometry |  | 10 µM, 72 h |  | cells in G1 phase | 74.2 ± 1.87% |
| Cn1cc(-c2ccc3nnc(Sc4ccc5ncccc5c4)n3n2)cn1 | iCell Cardiomyocytes (hiPSC-derived) | xCELLigence Cardio impedance |  | concentration not given, 2 h | baseline: control | beat rate | 105% |
| c1ccc(-c2csc(NCc3ncccn3)n2)nc1 | THLE-2 |  |  |  | baseline: CC50 THLE-2 over Huh-7 | selectivity ratio | < 2 |
| COc1ccc(NC(=S)N/N=C/c2cccc3cc4ccccc4nc23)cc1 | HeLa | TMRE flow cytometry |  | IC25, 48 h, unit not given | baseline: DMSO control | mitochondrial membrane potential | 1.69 ± 0.49 |
| Clc1ccc(Nc2nnc(Cc3ccncc3)c3ccccc23)cc1 | iCell Cardiomyocytes (hiPSC-derived) | xCELLigence Cardio impedance |  | concentration not given, 2 h | baseline: control | beat rate | 101% |
| CCNCCc1ccc(CN(CC)c2cc(OC)ccc2[C@@H]2CCc3cc(O)ccc3C2)cc1 | MCF7/luciferase, wild type | cell proliferation |  |  |  | maximum inhibition | 74.7% |
| CCOc1cc2ncc(C#N)c(Nc3ccc(OCc4ccccn4)c(Cl)c3)c2cc1NC(=O)/C=C/CN(C)C | iCell Cardiomyocytes (hiPSC-derived) | xCELLigence Cardio impedance |  | concentration not given, 2 h | baseline: control | beat rate | 76.8% |
| COc1ccc(Cc2nccc3cc(OC)c(OC)cc23)cc1 | A549 | mitochondrial oxygen consumption, Seahorse XF96 |  | 10 µM |  | inhibition | 18% |

| SMILES | cell line | test | system | conditions | how to read | measurement | result |
| --- | --- | --- | --- | --- | --- | --- | --- |
| CCn1cc(-c2cc(Cn3ccoc3=N)cc3c2CCN([C@@H](C)c2cc(OC)ccn2)C3=O)c(C(F)(F)F)n1 | TOV21G | cell growth, inhibitor |  | 120 h |  | EC50 | > 30 µM |
| Cn1cc(Nc2nccc(-c3ccc4c(c3)CN(C3COC3)CC[C@H]4NC(=O)c3cn(C(C)(C)C)nn3)n2)cn1 | mouse splenic B cells | refers to: Endothelin-1 signalling |  | 30 mg/kg, IgD-activated in vivo | baseline: vehicle, direction not given | pathway activation z-score | 2.86 |
| CC(C)(C)c1cnc(CSc2cnc(NC(=O)C3CCNCC3)s2)o1 | iCell Cardiomyocytes (hiPSC-derived) | xCELLigence Cardio impedance |  | concentration not given, 2 h | baseline: control | beat rate | 102% |
| CCn1cc(-c2cc(Cn3ccnc3)cc3c2CCN([C@H](c2cc(OC)ccn2)C2CC2)C3=O)c(C(F)(F)F)n1 | DB | cell growth |  | 120 h |  | EC50 | 20 µM |
| C[C@]12O[C@H](C[C@]1(O)CO)n1c3ccccc3c3c4c(c5c6ccccc6n2c5c31)CNC4=O | iCell Cardiomyocytes (hiPSC-derived) | xCELLigence Cardio impedance |  | concentration not given, 2 h | baseline: control | beat amplitude | 50.7% |
| CCCCN1C[C@H](O)[C@@H](O)[C@@H](O)[C@H]1CO | sample J patient fibroblasts | GlcCer level lowering, LC-MS/MS, refers to: GlcCer d18:1/24:1 |  | 216 h |  | IC50 | 70.1 µM |
| Clc1ccc(C2(c3ccc(-c4cn[nH]c4)cc3)CCNCC2)cc1 | SK-OV-3 | ATP | 3D gellan gum culture | 0.1 µM, 4 days | baseline: untreated | relative cell number | 71.9% |
| Cc1cc(Nc2ncc(Cl)c(Nc3ccccc3S(=O)(=O)C(C)C)n2)c(OC(C)C)cc1C1CCNCC1 | CLB-GE | phosphoproteomics LC-MS/MS, refers to: AKT1 phosphorylation |  | 200 nM, 60 min | baseline: untreated | log2 fold change | -3.27 |
| COc1cc(/C=C/C(=O)N2CCC=CC2=O)cc(OC)c1OC | MDA-MB-468 | qRT-PCR, refers to: IDH2 |  | 30 µM, 6 h | baseline: time zero | mRNA level | 78.2 ± 9.9% |
| Nc1ncnc2c1ncn2[C@@H]1O[C@H](CO)[C@@H](O)[C@H]1O | activated human T cells |  |  | 100 nM | higher = more TNF | TNF production | 5010 a.u. and 4630 a.u. and 4300 a.u. |
| Cc1[nH]c(/C=C2\C(=O)Nc3ccc(S(=O)(=O)Cc4c(Cl)cccc4Cl)cc32)c(C)c1C(=O)N1CCC[C@@H]1CN1CCCC1 | iCell Cardiomyocytes (hiPSC-derived) | xCELLigence Cardio impedance |  | concentration not given, 2 h | baseline: control | beat amplitude | 96.8% |
| COc1cnc2cccc(N3CCc4c(cc(Cn5ccnc5C)cc4-c4cn(C)nc4C(F)(F)F)C3=O)c2c1 | CAKI-2 | cell growth, inhibitor |  | 120 h |  | EC50 | > 30 µM |
| O=c1[nH]nc(OCCCc2ccc(Cl)cc2)c(NCc2cccnc2)c1Br | HEK-293T | RNA-seq GSEA, refers to: HALLMARK_PANCREAS_BETA_CELLS |  | concentration not given | direction not given | normalized enrichment score | -0.868 |
| CNC(=O)c1cc(Oc2ccc(NC(=O)Nc3ccc(Cl)c(C(F)(F)F)c3)cc2)ccn1 | BEAS-2B and A549 | MTT |  |  | baseline: IC50 BEAS-2B over IC50 A549 | selectivity ratio | 5.4 |
| C=CC(=O)N1C/C(=C\c2ccc([N+](=O)[O-])cc2)C(=O)/C(=C/c2ccc([N+](=O)[O-])cc2)C1 | ARPE-19 HiBiT fibulin-3 | HiBiT luminescence |  | 5 µM |  | fibulin-3 level | -63% |
| O=C1CCC(N2Cc3c(C#CCCCNC(=O)C4CCN(C(=O)[C@@H]5NC6(CCCCC6)[C@@]6(C(=O)Nc7cc(Cl)ccc76)C5c5cccc(Cl)c5F)CC4)cccc3C2=O)C(=O)N1 (stereo in doubt) | RS4;11 (p53 wild type) | WST-8 |  | concentration not given, 4 days |  | growth inhibition | inactive |
| C[S+]([O-])c1ccc(-c2nc(-c3ccncc3)c(-c3ccc(F)cc3)[nH]2)cc1 (centres unmarked) | iCell Cardiomyocytes (hiPSC-derived) | xCELLigence Cardio impedance |  | concentration not given, 2 h | baseline: control | beat rate | 95.7% |
| Cc1cc(Nc2ncc(Cl)c(Nc3ccccc3S(=O)(=O)C(C)C)n2)c(OC(C)C)cc1C1CCNCC1 | NB1 (ALK amplification, exon 2-3 deletion) | cell viability |  |  |  | Emax | 76.4% |
| CS(=O)(=O)N1CCN(Cc2cc3nc(-c4cccc5[nH]ncc45)nc(N4CCOCC4)c3s2)CC1 | iCell Cardiomyocytes (hiPSC-derived) | xCELLigence Cardio impedance |  | concentration not given, 2 h | baseline: control | beat amplitude | 109% |
| COc1cc(N2CCC(N3CCN(C)CC3)CC2)ccc1Nc1ncc(Cl)c(Nc2ccccc2P(C)(C)=O)n1 | Ba/F3 EML4-ALK variant 1 S1206F | cell viability |  |  |  | Emax | 100% |

Repeated from above:
| SMILES | cell line | test | system | conditions | how to read | measurement | result |
| --- | --- | --- | --- | --- | --- | --- | --- |
| COc1ccc(Cc2nccc3cc(OC)c(OC)cc23)cc1 | A549 | mitochondrial oxygen consumption, Seahorse XF96 |  | 10 µM |  | inhibition | 18% |
| CCn1cc(-c2cc(Cn3ccoc3=N)cc3c2CCN([C@@H](C)c2cc(OC)ccn2)C3=O)c(C(F)(F)F)n1 | TOV21G | cell growth, inhibitor |  | 120 h |  | EC50 | > 30 µM |
| Cn1cc(Nc2nccc(-c3ccc4c(c3)CN(C3COC3)CC[C@H]4NC(=O)c3cn(C(C)(C)C)nn3)n2)cn1 | mouse splenic B cells | refers to: Endothelin-1 signalling |  | 30 mg/kg, IgD-activated in vivo | baseline: vehicle, direction not given | pathway activation z-score | 2.86 |
